Earlier results that unrelated publications cite.

SMILES	test system	conditions	Cmax
O=C(O)[C@@H](c1ccccc1)[C@@H]1CCCCN1	human, by CES1 genotype, plasma	oral, 10 mg methylphenidate, single dose, median	114 ng/mL
NC(=O)c1ccc2c(c1O)[C@]13CCN(CC4CC4)[C@H](C2)[C@]1(O)CCC(=O)C3	human	oral, 5 mg, day 1	13.8 ng/mL
O=c1n(CCCN2CCN(c3cccc(Cl)c3)CC2)nc2ccccn12	human, plasma	concentration not given, median of reported values	2220 nM
O=C(O)c1ccc2nc(-c3cc(Cl)cc(Cl)c3)oc2c1	human, plasma total	20 mg	9120 nM
C[C@]12CCC(=O)C=C1CC[C@@H]1[C@@H]2[C@@H](O)C[C@@]2(C)[C@H]1CC[C@]2(O)C(=O)CO	human, plasma	concentration not given, median of reported values	384 nM
CN1C(=O)CC(=O)N(c2ccccc2)c2cc(Cl)ccc21	human, plasma total	40 mg	4570 nM
C=C1C[C@@H]2[C@H](CC[C@]3(C)C(=O)CC[C@@H]23)[C@@]2(C)C=CC(=O)C=C12	human, plasma	concentration not given, median of reported values	51 nM
C=C[C@@H]1C[C@]1(NC(=O)[C@@H]1C[C@@H]2CN1C(=O)[C@H](C(C)(C)C)NC(=O)O[C@@H]1C[C@H]1CCCCCc1nc3ccc(OC)cc3nc1O2)C(=O)NS(=O)(=O)C1CC1	human patients, plasma	dose not given, single or steady-state dosing, added: with co-medication	200 nM
CC(C)=CCN1Cc2cc(Cl)cc3[nH]c(=S)n(c23)C[C@@H]1C	human	200 mg once daily	180 nM
CCC(=O)NC[C@@H]1C[C@H]1c1cccc2c1CCO2	human, plasma total	20 mg	803 nM
CC[C@@H]1C[C@]1(NC(=O)[C@@H]1C[C@@H]2CN1C(=O)[C@H](C(C)(C)C)NC(=O)OCC(C)(C)CCCCc1cccc3c1CN(C3)C(=O)O2)C(=O)NS(=O)(=O)C1CC1	human patients, plasma	dose not given, single or steady-state dosing, added: with co-medication	6500 nM
C=C[C@@H]1C[C@]1(NC(=O)[C@@H]1C[C@@H]2CN1C(=O)[C@H](C(C)(C)C)NC(=O)O[C@@H]1C[C@H]1CCCCCc1nc3ccc(OC)cc3nc1O2)C(=O)NS(=O)(=O)C1CC1	healthy human subjects, plasma	200 mg, steady state	710 nM
CCOc1ccccc1OCCN[C@H](C)Cc1ccc(OC)c(S(N)(=O)=O)c1	human, plasma	concentration not given, range of reported values	8 to 58 nM
CC(C)/N=c1\cc2n(-c3ccc(Cl)cc3)c3ccccc3nc-2cc1Nc1ccc(Cl)cc1	human	200 mg once daily	861 nM
O=c1[nH]c2ccccc2n1C1CCN(CCCC(c2ccc(F)cc2)c2ccc(F)cc2)CC1	human, plasma	concentration not given, range of reported values	2 to 12 nM
O=C(O)CSc1nnc(Br)n1-c1ccc(C2CC2)c2ccccc12	human, plasma total	200 mg	15000 nM
COC(=O)C(c1ccccc1)C1CCCCN1 (stereo not drawn)	human, plasma	concentration not given, median of reported values	62 nM
Cc1cnc(C(=O)N[C@H]2CCCCC/C=C\[C@@H]3C[C@@]3(C(=O)NS(=O)(=O)C3CC3)NC(=O)[C@@H]3C[C@@H](Oc4nc5ccccc5c5ccccc45)CN3C2=O)cn1	human patients, plasma	dose not given, single or steady-state dosing, added: with co-medication	300 nM

Excerpt of the above:
SMILES	test system	conditions	Cmax
CCOc1ccccc1OCCN[C@H](C)Cc1ccc(OC)c(S(N)(=O)=O)c1	human, plasma	concentration not given, range of reported values	8 to 58 nM
CC(C)/N=c1\cc2n(-c3ccc(Cl)cc3)c3ccccc3nc-2cc1Nc1ccc(Cl)cc1	human	200 mg once daily	861 nM
